{"sequences": {"note": "Protein sequences, listed by entry. Tags and fused reporters are not part of them. Chains listed by the source or under a name are the forms on record and can include a tag or linker. Residues count along the entry.", "UniProt P08104, whole entry": "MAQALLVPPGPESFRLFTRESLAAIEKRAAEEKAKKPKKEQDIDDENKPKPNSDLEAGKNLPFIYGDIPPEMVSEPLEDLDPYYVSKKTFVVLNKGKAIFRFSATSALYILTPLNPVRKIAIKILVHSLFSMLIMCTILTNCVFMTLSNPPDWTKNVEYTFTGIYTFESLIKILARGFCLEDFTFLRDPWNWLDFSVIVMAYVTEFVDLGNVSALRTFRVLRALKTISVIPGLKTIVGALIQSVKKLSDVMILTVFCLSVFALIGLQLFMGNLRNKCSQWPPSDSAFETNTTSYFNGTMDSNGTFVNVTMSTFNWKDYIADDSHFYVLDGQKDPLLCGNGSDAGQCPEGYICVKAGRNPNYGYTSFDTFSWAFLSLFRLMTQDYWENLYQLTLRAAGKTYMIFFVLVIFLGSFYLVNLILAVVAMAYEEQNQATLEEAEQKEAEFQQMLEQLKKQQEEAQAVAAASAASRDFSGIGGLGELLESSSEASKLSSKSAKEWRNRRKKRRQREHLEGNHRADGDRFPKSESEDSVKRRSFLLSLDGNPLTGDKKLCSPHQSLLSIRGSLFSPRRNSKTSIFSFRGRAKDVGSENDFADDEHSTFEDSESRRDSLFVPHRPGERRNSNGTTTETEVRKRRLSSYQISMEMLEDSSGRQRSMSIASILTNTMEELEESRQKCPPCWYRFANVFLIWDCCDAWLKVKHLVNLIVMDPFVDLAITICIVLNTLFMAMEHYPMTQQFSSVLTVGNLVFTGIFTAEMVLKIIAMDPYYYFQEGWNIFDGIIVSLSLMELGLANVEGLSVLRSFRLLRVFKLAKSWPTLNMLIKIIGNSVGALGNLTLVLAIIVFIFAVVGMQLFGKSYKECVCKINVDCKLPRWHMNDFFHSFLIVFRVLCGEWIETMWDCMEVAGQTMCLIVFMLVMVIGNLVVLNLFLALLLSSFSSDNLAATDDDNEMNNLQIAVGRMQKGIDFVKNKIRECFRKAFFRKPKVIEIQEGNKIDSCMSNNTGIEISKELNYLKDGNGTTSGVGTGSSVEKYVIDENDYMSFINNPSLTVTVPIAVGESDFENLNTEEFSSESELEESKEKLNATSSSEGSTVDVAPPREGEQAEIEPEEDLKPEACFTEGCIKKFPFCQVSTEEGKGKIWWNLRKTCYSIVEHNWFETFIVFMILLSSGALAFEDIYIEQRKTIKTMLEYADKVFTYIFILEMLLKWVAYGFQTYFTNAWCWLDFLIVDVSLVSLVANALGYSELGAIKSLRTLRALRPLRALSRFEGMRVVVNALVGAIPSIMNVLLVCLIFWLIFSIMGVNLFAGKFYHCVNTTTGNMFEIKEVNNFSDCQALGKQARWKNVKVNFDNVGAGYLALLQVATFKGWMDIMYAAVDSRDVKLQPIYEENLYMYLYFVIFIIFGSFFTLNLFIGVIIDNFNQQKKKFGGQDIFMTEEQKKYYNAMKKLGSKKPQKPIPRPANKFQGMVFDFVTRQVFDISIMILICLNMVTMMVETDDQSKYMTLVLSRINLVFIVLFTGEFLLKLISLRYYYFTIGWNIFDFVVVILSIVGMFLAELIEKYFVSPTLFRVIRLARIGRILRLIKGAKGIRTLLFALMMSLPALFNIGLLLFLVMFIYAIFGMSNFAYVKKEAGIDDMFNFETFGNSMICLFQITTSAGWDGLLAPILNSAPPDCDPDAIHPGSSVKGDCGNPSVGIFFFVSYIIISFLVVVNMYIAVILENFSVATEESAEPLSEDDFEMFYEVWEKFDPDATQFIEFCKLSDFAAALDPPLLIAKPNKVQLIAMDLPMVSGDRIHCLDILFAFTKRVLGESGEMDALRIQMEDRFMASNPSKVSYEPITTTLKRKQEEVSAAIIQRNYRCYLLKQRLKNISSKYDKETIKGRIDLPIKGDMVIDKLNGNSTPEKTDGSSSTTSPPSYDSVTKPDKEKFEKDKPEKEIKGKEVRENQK", "UniProt P04775, whole entry": "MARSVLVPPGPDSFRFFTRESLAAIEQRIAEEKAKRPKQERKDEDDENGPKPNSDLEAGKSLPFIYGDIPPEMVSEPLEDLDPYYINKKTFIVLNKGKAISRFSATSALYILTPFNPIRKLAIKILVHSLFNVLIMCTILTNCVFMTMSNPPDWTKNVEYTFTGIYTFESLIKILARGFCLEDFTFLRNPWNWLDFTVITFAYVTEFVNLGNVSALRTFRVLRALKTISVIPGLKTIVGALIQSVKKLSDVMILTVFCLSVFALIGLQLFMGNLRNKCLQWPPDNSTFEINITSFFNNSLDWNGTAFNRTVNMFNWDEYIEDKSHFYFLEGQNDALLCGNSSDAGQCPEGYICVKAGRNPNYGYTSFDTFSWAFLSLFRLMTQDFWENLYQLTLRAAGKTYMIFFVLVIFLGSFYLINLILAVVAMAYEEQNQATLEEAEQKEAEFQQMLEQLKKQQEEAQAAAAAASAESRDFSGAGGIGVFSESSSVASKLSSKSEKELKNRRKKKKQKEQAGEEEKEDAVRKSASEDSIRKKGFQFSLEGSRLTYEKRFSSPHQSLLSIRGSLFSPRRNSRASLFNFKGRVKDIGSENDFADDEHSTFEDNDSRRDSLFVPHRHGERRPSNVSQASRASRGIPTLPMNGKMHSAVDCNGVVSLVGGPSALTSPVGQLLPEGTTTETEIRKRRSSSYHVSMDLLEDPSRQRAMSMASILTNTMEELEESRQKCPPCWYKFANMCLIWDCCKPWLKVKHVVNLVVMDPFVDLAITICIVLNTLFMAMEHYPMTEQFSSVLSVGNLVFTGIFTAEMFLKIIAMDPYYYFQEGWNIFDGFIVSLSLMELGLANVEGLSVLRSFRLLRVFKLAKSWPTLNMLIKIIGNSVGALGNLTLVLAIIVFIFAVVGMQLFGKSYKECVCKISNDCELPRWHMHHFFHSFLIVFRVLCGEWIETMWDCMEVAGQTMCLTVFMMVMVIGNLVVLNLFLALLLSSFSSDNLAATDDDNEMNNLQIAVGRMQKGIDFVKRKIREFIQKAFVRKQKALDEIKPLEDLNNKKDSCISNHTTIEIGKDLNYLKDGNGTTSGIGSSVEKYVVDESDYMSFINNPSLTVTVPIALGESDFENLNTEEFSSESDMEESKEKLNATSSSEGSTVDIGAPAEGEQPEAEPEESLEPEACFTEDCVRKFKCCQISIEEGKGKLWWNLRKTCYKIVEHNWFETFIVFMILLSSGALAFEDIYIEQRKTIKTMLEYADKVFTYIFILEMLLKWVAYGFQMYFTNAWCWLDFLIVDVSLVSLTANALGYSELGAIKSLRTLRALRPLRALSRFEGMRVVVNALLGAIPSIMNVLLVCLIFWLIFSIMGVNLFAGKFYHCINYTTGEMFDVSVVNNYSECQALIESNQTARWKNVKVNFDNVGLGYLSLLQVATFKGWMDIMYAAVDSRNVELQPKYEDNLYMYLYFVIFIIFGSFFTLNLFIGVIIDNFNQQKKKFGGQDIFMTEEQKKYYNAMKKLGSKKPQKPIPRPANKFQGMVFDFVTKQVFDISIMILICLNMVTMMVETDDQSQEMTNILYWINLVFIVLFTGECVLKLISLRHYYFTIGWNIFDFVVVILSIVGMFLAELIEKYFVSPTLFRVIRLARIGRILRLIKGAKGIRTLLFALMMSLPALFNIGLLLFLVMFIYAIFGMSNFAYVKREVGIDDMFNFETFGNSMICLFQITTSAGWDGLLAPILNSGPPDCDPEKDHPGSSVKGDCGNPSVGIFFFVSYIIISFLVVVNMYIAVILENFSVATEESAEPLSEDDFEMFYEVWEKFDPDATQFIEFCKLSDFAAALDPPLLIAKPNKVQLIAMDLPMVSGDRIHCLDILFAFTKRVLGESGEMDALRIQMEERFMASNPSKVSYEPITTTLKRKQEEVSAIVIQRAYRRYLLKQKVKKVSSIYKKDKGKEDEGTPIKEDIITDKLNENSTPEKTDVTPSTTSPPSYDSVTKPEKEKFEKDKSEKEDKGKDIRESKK", "UniProt P08510, 1-655 with tags or gaps DEL6-46": "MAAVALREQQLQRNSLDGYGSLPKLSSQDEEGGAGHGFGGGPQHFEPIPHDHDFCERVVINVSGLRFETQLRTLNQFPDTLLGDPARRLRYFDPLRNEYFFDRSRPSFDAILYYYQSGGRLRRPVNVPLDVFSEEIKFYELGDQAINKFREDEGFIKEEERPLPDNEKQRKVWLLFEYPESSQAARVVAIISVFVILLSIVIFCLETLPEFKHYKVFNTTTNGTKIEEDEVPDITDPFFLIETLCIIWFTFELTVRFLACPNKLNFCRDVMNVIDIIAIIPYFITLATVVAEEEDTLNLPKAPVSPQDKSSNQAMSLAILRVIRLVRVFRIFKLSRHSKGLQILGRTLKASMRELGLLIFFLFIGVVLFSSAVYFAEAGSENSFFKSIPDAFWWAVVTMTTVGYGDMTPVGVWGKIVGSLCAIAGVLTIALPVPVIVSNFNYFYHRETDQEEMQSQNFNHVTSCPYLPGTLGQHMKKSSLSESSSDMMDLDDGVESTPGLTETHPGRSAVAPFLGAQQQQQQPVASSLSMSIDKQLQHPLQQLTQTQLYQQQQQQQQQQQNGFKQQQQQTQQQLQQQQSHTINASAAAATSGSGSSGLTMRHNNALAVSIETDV", "UniProt P22303, whole entry, looked up": "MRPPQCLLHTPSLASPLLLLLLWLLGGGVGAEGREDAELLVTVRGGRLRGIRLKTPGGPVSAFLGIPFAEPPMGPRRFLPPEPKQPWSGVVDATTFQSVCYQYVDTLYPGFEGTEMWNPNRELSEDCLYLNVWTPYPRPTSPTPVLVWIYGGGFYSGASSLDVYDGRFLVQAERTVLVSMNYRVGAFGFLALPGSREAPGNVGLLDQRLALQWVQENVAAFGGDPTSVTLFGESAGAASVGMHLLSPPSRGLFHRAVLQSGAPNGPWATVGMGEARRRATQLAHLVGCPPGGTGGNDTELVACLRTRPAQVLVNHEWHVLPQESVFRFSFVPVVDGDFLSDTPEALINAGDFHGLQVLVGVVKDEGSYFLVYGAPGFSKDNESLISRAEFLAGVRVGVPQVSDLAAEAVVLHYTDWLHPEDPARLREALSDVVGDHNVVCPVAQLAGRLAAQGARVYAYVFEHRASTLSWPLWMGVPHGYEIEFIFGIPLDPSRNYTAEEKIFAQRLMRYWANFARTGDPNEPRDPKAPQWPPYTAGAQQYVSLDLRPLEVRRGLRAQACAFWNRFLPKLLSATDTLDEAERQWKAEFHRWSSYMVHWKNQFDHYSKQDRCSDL"}, "data": "Measurements of several laboratories", "Scn3a": "Sodium channel protein type 3 subunit alpha (Scn3a, Rattus norvegicus, UniProt P08104)", "Scn2a": "Sodium channel protein type 2 subunit alpha (Scn2a, Rattus norvegicus, UniProt P04775)", "note": "Compare with care: the assays were run in different laboratories. Numbers after ± are the reported error."}
{"SMILES": "CC[C@H](C)[C@@H]1NC(=O)[C@H](CCCNC(=N)N)NC(=O)[C@@H](N)CSSC[C@@H]2NC(=O)[C@@H]3CSSC[C@@H](C(=O)N[C@H](C(=O)O)C(C)C)NC(=O)[C@H](CCCCN)NC(=O)[C@H](CC(N)=O)NC(=O)[C@H](Cc4ccccc4)NC(=O)[C@H](CCCNC(=N)N)NC(=O)[C@H](CC(N)=O)NC(=O)[C@H](CSSC[C@H](NC(=O)[C@H](CCCCN)NC(=O)[C@H](CCC(N)=O)NC(=O)[C@H](CC(N)=O)NC(=O)[C@@H]4C[C@@H](O)CN4C1=O)C(=O)N[C@@H](Cc1ccccc1)C(=O)N[C@@H](CCC(N)=O)C(=O)N[C@@H](Cc1c[nH]cn1)C(=O)N[C@@H](CC(C)C)C(=O)N[C@@H](CC(=O)O)C(=O)N[C@@H](CC(=O)O)C(=O)N3)NC(=O)[C@H](CCCCN)NC(=O)[C@H](CCCNC(=N)N)NC(=O)[C@H](CO)NC2=O", "target": "Sh (Drosophila melanogaster, UniProt P08510, del6-46)", "assay": "potassium current, two-electrode voltage clamp", "test system": "Xenopus oocytes", "conditions": "external K 2 mM, zero voltage", "Kd [µM]": "0.403 ± 0.04"}
{"SMILES": "CC(C)[C@H](N)C(=O)NCC(=O)N[C@@H](CCC(=O)O)C(=O)N[C@@H](CCCNC(=N)N)C(=O)N[C@H]1C[Se][Se]C[C@@H]2NC(=O)[C@H](Cc3c[nH]c4ccccc34)NC(=O)[C@H](CCCNC(=N)N)NC(=O)CNC(=O)[C@H](CSSC[C@@H](C(N)=O)NC(=O)[C@H](C)NC(=O)[C@H](CCCNC(=N)N)NC(=O)[C@H](CO)NC(=O)[C@H](Cc3c[nH]cn3)NC(=O)[C@H](CC(=O)O)NC(=O)[C@H](CCCNC(=N)N)NC2=O)NC(=O)CNC(=O)[C@H](CCCNC(=N)N)NC(=O)[C@H](CCCCN)NC(=O)CNC(=O)[C@H](CC(N)=O)NC(=O)[C@H](CCCCN)NC(=O)[C@H](C)NC1=O", "target": "Scn3a", "assay": "sodium current, blocker, two-electrode voltage clamp", "test system": "Xenopus laevis oocytes", "Kd [µM]": "0.2 ± 0.04"}
{"SMILES": "CC(C(=O)O)c1nn(C)c2nc(N)[nH]c(=O)c2c1=O (centres unmarked)", "target": "Dihydropteroate synthase (Bacillus anthracis, UniProt Q81VW8)", "Kd [µM]": "0.24 ± 0.07"}
{"SMILES": "CC(C)[C@H](N)C(=O)NCC(=O)N[C@@H](CCC(=O)O)C(=O)N[C@@H](CCCNC(=N)N)C(=O)N[C@@H](C)C(=O)N[C@H]1CSSC[C@@H]2NC(=O)[C@H](CCCNC(=N)N)NC(=O)[C@H](CO)NC(=O)[C@H](Cc3cnc[nH]3)NC(=O)[C@H](CC(=O)O)NC(=O)[C@H](CCCNC(=N)N)NC(=O)[C@H](C)NC(=O)[C@H](Cc3c[nH]c4ccccc34)NC(=O)[C@H](CCCNC(=N)N)NC(=O)CNC(=O)[C@H](CSSC[C@@H](C(N)=O)NC2=O)NC(=O)CNC(=O)[C@H](CCCNC(=N)N)NC(=O)[C@H](CCCCN)NC(=O)CNC(=O)[C@H](CC(N)=O)NC(=O)[C@H](CCCCN)NC1=O", "target": "Scn3a", "assay": "sodium current, blocker, two-electrode voltage clamp", "test system": "Xenopus laevis oocytes", "Kd [µM]": "15.7 ± 2.6"}
{"SMILES": "C[C@@H]1NC(=O)[C@H](Cc2c[nH]cn2)NC(=O)[C@H](CC(=O)O)NC(=O)[C@H](CCCNC(=N)N)NC(=O)[C@@H]2CSSC[C@H](NC(=O)[C@H](CC(N)=O)NC(=O)[C@@H]3CCC(=O)N3)C(=O)N[C@H]3C[Se][Se]C[C@H](NC(=O)[C@H](CCCNC(=N)N)NC1=O)C(=O)N[C@H](C(N)=O)CSSC[C@H](NC(=O)CNC(=O)CNC(=O)[C@H](CC(N)=O)NC3=O)C(=O)N[C@@H](CO)C(=O)N[C@@H](CO)C(=O)N[C@@H](CCCCN)C(=O)N[C@@H](Cc1c[nH]c3ccccc13)C(=O)N2", "target": "Scn2a", "assay": "ion current, blocker, electrophysiology", "Kd [µM]": "0.067 ± 0.018"}
{"SMILES": "O=C(NS(=O)(=O)OC[C@H]1O[C@@H](n2cnc3c(NCc4ccccc4)ncnc32)[C@H](O)[C@@H]1O)c1ccccc1O", "target": "Yersiniabactin siderophore biosynthetic protein (Yersinia pseudotuberculosis serotype I, UniProt Q3V7P9)", "assay": "binding", "Kd [µM]": "0.00134 ± 0.00029"}
{"SMILES": "O=P(O)(O)C(F)(F)c1cccc(-c2ccc(CO/N=C/c3ccoc3)cc2)c1", "target": "Secreted effector protein (Yersinia pestis, UniProt O68720, C403A/D356A)", "assay": "surface plasmon resonance", "conditions": "immobilized protein", "Kd [µM]": 292}
{"SMILES": "CC(C)[C@H](N)C(=O)NCC(=O)N[C@@H](CCC(=O)O)C(=O)N[C@@H](CCCNC(=N)N)C(=O)N[C@H]1C[Se][Se]C[C@@H]2NC(=O)[C@H](Cc3c[nH]c4ccccc34)NC(=O)[C@H](CCCNC(=N)N)NC(=O)CNC(=O)[C@H](C)NC(=O)CNC(=O)[C@H](CCCNC(=N)N)NC(=O)[C@H](CCCCN)NC(=O)CNC(=O)[C@H](CC(N)=O)NC(=O)[C@H](CCCCN)NC(=O)[C@H](CSSC[C@@H](C(=O)N[C@@H](C)C(N)=O)NC(=O)[C@H](CCCNC(=N)N)NC(=O)[C@H](CO)NC(=O)[C@H](Cc3c[nH]cn3)NC(=O)[C@H](CC(=O)O)NC(=O)[C@H](CCCNC(=N)N)NC2=O)NC1=O", "target": "Scn3a", "assay": "sodium current, blocker, two-electrode voltage clamp", "test system": "Xenopus laevis oocytes", "Kd [µM]": "0.42 ± 0.05"}
{"SMILES": "C[C@H](N)C(=O)N[C@H]1CSSC[C@@H]2NC(=O)[C@H](CCCNC(=N)N)NC(=O)[C@H](CO)NC(=O)[C@H](Cc3cnc[nH]3)NC(=O)[C@H](CC(=O)O)NC(=O)[C@H](CCCNC(=N)N)NC(=O)[C@H](C)NC(=O)[C@H](Cc3c[nH]c4ccccc34)NC(=O)[C@H](CCCCN)NC(=O)[C@H](CO)NC(=O)[C@H](CO)NC(=O)[C@H](CSSC[C@@H](C(N)=O)NC2=O)NC(=O)[C@H](CC(N)=O)NC1=O", "target": "Scn2a", "assay": "sodium current, blocker, two-electrode voltage clamp", "test system": "Xenopus oocytes", "Kd [µM]": "0.008 ± 0.002"}
{"SMILES": "Nc1ncnc2c1ncn2[C@@H]1O[C@H](COP(=O)(O)OP(=O)(O)OP(=O)(O)O)[C@@H](O)[C@H]1O", "target": "Genome polyprotein, RNA polymerase 3D (Human poliovirus 1 Mahoney, UniProt P03300, K2107H)", "assay": "AMP incorporation, substrate", "conditions": "pH 7.5", "Kd [µM]": "340 ± 20"}
{"SMILES": "C[C@@H]1NC(=O)[C@H](CCCNC(=N)N)NC(=O)[C@H](CO)NC(=O)[C@H](Cc2cnc[nH]2)NC(=O)[C@H](CC(=O)O)NC(=O)[C@H](CCCNC(=N)N)NC(=O)[C@@H]2CSSC[C@H](N)C(=O)N[C@@H](C)C(=O)N[C@@H](CC(N)=O)C(=O)N[C@@H](CSSC[C@@H](C(N)=O)NC1=O)C(=O)N[C@@H](CO)C(=O)N[C@@H](CO)C(=O)N[C@@H](CCCCN)C(=O)N[C@@H](Cc1c[nH]c3ccccc13)C(=O)N2", "target": "Scn2a", "assay": "sodium current, blocker, two-electrode voltage clamp", "test system": "Xenopus oocytes", "Kd [µM]": "0.17 ± 0.06"}
{"SMILES": "C[C@@H]1NC(=O)[C@H](Cc2c[nH]cn2)NC(=O)[C@H](CC(=O)O)NC(=O)[C@H](CCCNC(=N)N)NC(=O)[C@@H]2CSSC[C@H](NC(=O)[C@H](CC(N)=O)NC(=O)[C@@H]3CCC(=O)N3)C(=O)N[C@H]3CSSC[C@H](NC(=O)[C@H](CCCNC(=N)N)NC1=O)C(=O)N[C@H](C(N)=O)C[Se][Se]C[C@H](NC(=O)CNC(=O)CNC(=O)[C@H](CC(N)=O)NC3=O)C(=O)N[C@@H](CO)C(=O)N[C@@H](CO)C(=O)N[C@@H](CCCCN)C(=O)N[C@@H](Cc1c[nH]c3ccccc13)C(=O)N2", "target": "Scn2a", "assay": "ion current, blocker, electrophysiology", "Kd [µM]": "0.037 ± 0.006"}
{"SMILES": "C[C@@H]1NC(=O)[C@H](Cc2c[nH]c3ccccc23)NC(=O)[C@H](CCCCN)NC(=O)COCCNC(=O)[C@@H]2CSSC[C@@H](C(N)=O)NC(=O)[C@H](CSSC[C@H](N)C(=O)N[C@@H](CC(N)=O)C(=O)N2)NC(=O)[C@H](CCCNC(=N)N)NC(=O)[C@H](CO)NC(=O)[C@H](Cc2c[nH]cn2)NC(=O)[C@H](CC(=O)O)NC(=O)[C@H](CCCNC(=N)N)NC1=O", "target": "Scn2a", "assay": "sodium current, blocker, two-electrode voltage clamp", "test system": "Xenopus oocytes", "Kd [µM]": 0.046}
{"SMILES": "CCN(CC)Cc1cc(N)ccc1O", "target": "Acetylcholinesterase, VX-inhibited (ACHE, Homo sapiens, UniProt P22303)", "assay": "enzyme reactivation, reactivator", "test system": "VX", "Kd [µM]": "2080 ± 940"}
{"note": "For quick reference, copied from above:"}
{"SMILES": "Nc1ncnc2c1ncn2[C@@H]1O[C@H](COP(=O)(O)OP(=O)(O)OP(=O)(O)O)[C@@H](O)[C@H]1O", "target": "Genome polyprotein, RNA polymerase 3D (Human poliovirus 1 Mahoney, UniProt P03300, K2107H)", "assay": "AMP incorporation, substrate", "conditions": "pH 7.5", "Kd [µM]": "340 ± 20"}
{"SMILES": "C[C@@H]1NC(=O)[C@H](Cc2c[nH]c3ccccc23)NC(=O)[C@H](CCCCN)NC(=O)COCCNC(=O)[C@@H]2CSSC[C@@H](C(N)=O)NC(=O)[C@H](CSSC[C@H](N)C(=O)N[C@@H](CC(N)=O)C(=O)N2)NC(=O)[C@H](CCCNC(=N)N)NC(=O)[C@H](CO)NC(=O)[C@H](Cc2c[nH]cn2)NC(=O)[C@H](CC(=O)O)NC(=O)[C@H](CCCNC(=N)N)NC1=O", "target": "Scn2a", "assay": "sodium current, blocker, two-electrode voltage clamp", "test system": "Xenopus oocytes", "Kd [µM]": 0.046}
